Published values gathered from unrelated publications.
Lines come from different studies, so protocols differ. Values joined by “and” are separate records of one study, mostly repeats; a detail may differ.
PRKAA1: 5'-AMP-activated protein kinase catalytic subunit alpha-1 (PRKAA1, Homo sapiens, UniProt Q13131)
PRKAA1 with beta1, gamma1: 5'-AMP-activated protein kinase catalytic subunit alpha-1, with beta1, gamma1 (PRKAA1, Homo sapiens, UniProt Q13131)

Compound | target | assay | system | setting | scale | endpoint | value
CN1CCN(Cc2ccc(-c3ccc(CO[C@H]4CCC[C@@H]4NC(=O)c4cc(-c5cnn(C)c5)cnc4N)cc3)cc2)CC1 | 5'-AMP-activated protein kinase catalytic subunit alpha-1, with beta1, gamma3 (PRKAA1, Homo sapiens, UniProt Q13131) | SelectScreen kinase profiling | – | 0.1 µM | – | inhibition | 0%
Nc1ncc2c(n1)-c1c([nH]c3ccc(C4=CCOCC4)cc13)CCC2 | PRKAA1 | binding, competition with immobilised ligand | – | 1 µM | – | remaining binding | 97%
CCCCCC(O)/C=C/C=O (stereo not drawn) | PRKAA1 | competitive isoTOP-ABPP | Ramos soluble proteome | 100 µM, with: iodoacetamide probe | reference: DMSO over compound-treated, higher = stronger cysteine blockade | isoTOP-ABPP competition ratio | 2.4
CCn1cc(C(=O)O)c(=O)c2c(N)c(F)c(NC3CCCCC3)cc21 | PRKAA1 with beta1, gamma1 | kinase activity | – | 0.1 µM, with: ATP at Km | – | inhibition | 2.2%
CCN1CCN(Cc2ccc(C(=O)Nc3ccc(C)c(NCc4cnc5[nH]ccc5c4OC)c3)cc2C(F)(F)F)CC1 | PRKAA1 | binding, competition with immobilised ligand | – | 1 µM | – | remaining binding | 89%
CN1CC[C@@H](COc2cnc(C#N)cc2-c2ccn3nc(NC(=O)C4CC4)cc3c2)C1 | PRKAA1 | enzyme activity, inhibitor | – | 1 µM | – | inhibition | -1%
Cc1cnc2nc1Nc1cccc(c1)COC/C=C/COCc1cc(ccc1OCCN1CCOCC1)N2 | PRKAA1 | binding, competition with immobilised ligand | – | 0.1 µM | – | remaining binding | 99%
COc1cc(Nc2nccc(-c3cnn4nc(OC)ccc34)n2)cc(C(F)(F)F)c1 | PRKAA1 | binding, competition with immobilised ligand | – | 1 µM | – | remaining binding | 80%
O=C(Cc1ccc(OCc2ccccc2)cc1)NC1(C(=O)O)CCN(C(=O)c2ccc(-c3cccc(Cl)c3)cc2)CC1 | PRKAA1 | kinase activity, inhibitor | – | 10 µM, with: ATP at Km | – | remaining activity | 98%
C=CC(=O)N1Cc2nc(-c3cc(-c4cc(Cl)cnc4Cl)c(F)cc3F)n(-c3ccncn3)c2C1 | PRKAA1 with beta1, gamma1 | kinome panel | – | 1 µM | – | inhibition | 14.1%
Cc1cccc(O[C@H]2CCC[C@@H](C(C)CNCc3ccncc3)C2)c1 (relative stereo) | PRKAA1 with beta1, gamma1 | kinome profiling | – | 1 µM | – | inhibition | -2%
C=CC(=O)N1CCc2ccc(-n3c(=O)ccc4cnc5ccc(-c6cnn(C)c6)cc5c43)cc21 | PRKAA1 | KINOMEscan | – | 1 µM | reference: DMSO control | remaining binding | 84%
C=CC(=O)N1CCCC(n2c(=O)c3ncccc3n(Cc3ccc(Oc4ccccc4)cc3)c2=O)C1 (stereo not drawn) | PRKAA1 | binding, competition with immobilised ligand | – | 1 µM | – | remaining binding | 100%
C=CC(=O)Nc1cccc(-c2cnc3[nH]cc(C(=O)NC(C)(C)C)c3n2)c1 | PRKAA1 with beta1, gamma1 | kinase activity, inhibitor, kinase panel | – | 0.1 µM | – | inhibition | 48% and 49%
C[C@H]1CN(C(=O)c2cn(-c3ccnc(N)n3)c3cc(C#CC4(O)CCCCC4)ccc23)CCN1 | 5'-AMP-activated protein kinase catalytic subunit alpha-1, with beta2, gamma2 (PRKAA1, Homo sapiens, UniProt Q13131) | kinase activity, Z'-LYTE | – | 1 µM, with: ATP at apparent Km | – | inhibition | 90%
